Results collected from several papers.
Every numbered part comes from another study and shows a few of its results, in no order.
Sequence of UniProt P08922 (whole entry, looked up): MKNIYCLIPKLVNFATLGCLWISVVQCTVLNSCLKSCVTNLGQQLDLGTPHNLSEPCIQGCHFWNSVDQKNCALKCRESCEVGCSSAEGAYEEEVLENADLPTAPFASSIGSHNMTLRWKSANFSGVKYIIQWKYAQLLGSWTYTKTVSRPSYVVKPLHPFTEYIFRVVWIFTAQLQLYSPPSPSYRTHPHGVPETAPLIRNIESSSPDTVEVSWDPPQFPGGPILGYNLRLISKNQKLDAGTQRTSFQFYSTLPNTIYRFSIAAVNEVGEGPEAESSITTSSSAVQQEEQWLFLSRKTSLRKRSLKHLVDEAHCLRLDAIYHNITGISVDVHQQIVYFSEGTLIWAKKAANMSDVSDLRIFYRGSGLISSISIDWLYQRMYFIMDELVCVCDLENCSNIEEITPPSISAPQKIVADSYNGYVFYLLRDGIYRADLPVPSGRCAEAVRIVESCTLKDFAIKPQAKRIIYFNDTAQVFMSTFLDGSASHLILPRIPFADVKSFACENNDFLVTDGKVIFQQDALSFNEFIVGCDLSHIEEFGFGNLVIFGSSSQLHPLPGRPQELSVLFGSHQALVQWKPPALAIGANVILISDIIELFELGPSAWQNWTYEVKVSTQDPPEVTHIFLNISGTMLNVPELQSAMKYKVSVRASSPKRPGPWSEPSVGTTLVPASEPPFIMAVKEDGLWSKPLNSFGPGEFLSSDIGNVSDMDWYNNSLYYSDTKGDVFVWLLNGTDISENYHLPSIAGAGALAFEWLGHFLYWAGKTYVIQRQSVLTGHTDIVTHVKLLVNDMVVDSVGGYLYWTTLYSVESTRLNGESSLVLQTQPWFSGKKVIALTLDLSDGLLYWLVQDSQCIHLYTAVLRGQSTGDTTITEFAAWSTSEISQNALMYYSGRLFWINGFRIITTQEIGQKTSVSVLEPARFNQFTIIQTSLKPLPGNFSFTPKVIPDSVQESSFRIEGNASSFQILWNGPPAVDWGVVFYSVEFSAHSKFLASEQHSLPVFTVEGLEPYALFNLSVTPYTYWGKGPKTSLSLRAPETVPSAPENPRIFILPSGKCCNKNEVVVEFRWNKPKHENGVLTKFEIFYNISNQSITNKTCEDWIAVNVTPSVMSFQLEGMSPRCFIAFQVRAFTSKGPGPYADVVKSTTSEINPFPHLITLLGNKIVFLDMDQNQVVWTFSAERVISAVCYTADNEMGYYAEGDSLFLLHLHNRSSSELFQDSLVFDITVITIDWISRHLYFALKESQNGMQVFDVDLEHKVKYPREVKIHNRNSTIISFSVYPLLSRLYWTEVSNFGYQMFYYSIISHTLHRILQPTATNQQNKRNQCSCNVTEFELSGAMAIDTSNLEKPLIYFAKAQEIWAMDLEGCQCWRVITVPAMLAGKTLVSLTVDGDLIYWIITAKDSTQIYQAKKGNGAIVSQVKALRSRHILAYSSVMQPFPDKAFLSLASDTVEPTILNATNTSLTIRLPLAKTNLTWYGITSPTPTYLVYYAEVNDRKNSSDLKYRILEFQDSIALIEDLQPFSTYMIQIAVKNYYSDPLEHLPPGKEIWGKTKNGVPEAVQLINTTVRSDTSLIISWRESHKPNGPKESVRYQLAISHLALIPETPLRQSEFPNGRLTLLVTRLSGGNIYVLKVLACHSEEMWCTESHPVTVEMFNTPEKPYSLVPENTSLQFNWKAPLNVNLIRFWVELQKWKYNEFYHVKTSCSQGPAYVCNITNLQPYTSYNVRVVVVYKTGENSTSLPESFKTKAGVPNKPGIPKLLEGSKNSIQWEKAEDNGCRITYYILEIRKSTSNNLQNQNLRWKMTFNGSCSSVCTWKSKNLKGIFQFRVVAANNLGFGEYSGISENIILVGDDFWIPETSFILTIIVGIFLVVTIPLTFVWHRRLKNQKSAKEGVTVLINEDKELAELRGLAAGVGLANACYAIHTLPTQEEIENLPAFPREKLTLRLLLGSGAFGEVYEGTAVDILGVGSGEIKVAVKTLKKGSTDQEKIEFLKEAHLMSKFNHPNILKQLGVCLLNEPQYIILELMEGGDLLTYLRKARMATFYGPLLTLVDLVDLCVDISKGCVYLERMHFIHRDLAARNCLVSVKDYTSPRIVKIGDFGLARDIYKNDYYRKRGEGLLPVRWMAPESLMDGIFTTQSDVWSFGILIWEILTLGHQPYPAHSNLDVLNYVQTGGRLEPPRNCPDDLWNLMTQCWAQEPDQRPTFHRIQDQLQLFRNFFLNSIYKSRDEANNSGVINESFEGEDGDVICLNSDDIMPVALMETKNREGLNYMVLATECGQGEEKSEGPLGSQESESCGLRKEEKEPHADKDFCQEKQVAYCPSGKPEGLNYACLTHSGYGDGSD
Sequence of UniProt Q05655 (whole entry, looked up): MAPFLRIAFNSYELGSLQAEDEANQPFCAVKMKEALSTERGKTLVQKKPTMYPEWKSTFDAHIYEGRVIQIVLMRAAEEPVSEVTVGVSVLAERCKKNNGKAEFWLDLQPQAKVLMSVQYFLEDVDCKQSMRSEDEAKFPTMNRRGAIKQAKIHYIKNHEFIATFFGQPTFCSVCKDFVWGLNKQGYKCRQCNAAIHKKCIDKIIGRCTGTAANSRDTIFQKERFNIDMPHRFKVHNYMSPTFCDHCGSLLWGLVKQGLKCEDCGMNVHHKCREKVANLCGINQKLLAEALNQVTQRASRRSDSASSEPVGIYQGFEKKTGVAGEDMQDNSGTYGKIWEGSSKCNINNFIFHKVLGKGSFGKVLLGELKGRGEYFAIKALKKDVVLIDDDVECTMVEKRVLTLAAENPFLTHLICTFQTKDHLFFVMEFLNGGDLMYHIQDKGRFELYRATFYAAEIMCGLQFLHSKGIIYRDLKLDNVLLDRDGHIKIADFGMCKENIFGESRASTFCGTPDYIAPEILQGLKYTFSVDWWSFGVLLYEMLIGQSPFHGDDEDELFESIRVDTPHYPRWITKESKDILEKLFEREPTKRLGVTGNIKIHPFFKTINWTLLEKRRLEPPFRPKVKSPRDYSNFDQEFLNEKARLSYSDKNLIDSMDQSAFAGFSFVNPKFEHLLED
Sequence of UniProt P22607 (whole entry, looked up): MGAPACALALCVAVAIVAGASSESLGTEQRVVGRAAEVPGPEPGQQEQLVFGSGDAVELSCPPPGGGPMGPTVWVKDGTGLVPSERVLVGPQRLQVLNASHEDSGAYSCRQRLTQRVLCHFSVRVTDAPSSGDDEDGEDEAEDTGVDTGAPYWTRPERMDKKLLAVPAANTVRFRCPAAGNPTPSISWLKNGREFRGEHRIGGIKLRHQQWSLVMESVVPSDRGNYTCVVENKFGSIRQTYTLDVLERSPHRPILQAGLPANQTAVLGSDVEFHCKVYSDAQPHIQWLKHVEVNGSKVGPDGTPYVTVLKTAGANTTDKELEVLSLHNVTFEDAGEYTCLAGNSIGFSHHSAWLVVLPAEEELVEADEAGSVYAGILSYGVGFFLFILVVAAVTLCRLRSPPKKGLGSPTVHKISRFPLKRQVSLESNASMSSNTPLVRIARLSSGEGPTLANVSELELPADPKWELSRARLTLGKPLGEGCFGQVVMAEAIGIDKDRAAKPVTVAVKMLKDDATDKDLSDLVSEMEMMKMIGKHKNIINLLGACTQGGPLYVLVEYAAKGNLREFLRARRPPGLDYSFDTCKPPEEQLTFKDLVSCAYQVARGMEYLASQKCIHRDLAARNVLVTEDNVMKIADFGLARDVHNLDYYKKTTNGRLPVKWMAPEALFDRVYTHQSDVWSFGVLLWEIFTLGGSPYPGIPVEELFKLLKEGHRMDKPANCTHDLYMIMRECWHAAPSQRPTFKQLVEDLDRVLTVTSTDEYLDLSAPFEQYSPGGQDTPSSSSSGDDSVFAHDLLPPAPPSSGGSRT

Series 1
Target: Muscle, skeletal receptor tyrosine-protein kinase (MUSK, Homo sapiens, UniProt O15146)
Sequence of UniProt O15146 (whole entry, looked up): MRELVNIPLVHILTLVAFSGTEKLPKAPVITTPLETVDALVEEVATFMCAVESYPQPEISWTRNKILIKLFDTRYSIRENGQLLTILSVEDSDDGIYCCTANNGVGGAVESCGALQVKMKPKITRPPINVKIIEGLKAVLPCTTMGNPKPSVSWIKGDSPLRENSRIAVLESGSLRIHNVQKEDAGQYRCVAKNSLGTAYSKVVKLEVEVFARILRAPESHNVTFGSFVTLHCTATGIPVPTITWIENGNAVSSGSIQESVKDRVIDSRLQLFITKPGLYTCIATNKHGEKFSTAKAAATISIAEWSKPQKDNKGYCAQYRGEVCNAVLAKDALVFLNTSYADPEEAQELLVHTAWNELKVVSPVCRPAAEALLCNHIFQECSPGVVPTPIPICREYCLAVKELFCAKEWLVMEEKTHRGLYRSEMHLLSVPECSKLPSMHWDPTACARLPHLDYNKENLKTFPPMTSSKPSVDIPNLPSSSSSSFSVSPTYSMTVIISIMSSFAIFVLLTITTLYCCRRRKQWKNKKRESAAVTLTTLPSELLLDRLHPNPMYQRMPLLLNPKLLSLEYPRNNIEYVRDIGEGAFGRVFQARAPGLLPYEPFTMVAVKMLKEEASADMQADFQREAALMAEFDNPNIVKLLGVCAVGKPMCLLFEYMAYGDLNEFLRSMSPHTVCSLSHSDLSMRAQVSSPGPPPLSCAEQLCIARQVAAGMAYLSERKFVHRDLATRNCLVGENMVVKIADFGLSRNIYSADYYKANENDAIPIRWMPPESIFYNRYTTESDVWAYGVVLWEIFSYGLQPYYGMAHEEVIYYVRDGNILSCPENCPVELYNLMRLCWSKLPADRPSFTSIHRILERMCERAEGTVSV
Effect on: enzyme activity
Action: inhibitor
Tested at: 0.5 µM
Reference: control
`O=S(=O)(c1cccc2cnccc12)N1CCCNCC1` gave a remaining activity of 97.6%.
The remaining activity of `COc1cc2ncnc(Nc3ccc(F)c(Cl)c3)c2cc1OCCCN1CCOCC1` is reported as 98.1%.
With `OCC(O)CCON=C1C(c2c(O)[nH]c3ccccc23)=Nc2ccccc21` (stereo not drawn) the remaining activity was 58%.
`O=C(O)c1ccc2c3c1cccc3c(=O)n1c3ccccc3nc21` gave a remaining activity of 47.1%.
`Oc1ccc(-c2nc(-c3ccncc3)c(-c3ccc(F)cc3)[nH]2)cc1` has a remaining activity of 86.8%.
`O=C(CCCc1ccc(-c2ccccc2F)cc1)Nc1ccc(O)cc1` has a remaining activity of 93.1%.
`Cn1c2ccccc2c2c3c(c4c5ccccc5n(CCC#N)c4c21)CNC3=O` gave a remaining activity of 34.8%.
`Cc1cccc(-c2[nH]c(C(C)(C)C)nc2-c2ccc3c(c2)OCO3)n1` has a remaining activity of 99.1%.
For `O=C1NC(=O)C(c2cn(CCCO)c3ncccc23)=C1c1cnccn1`, the remaining activity was 67.2%.
For `Nc1ncnc2n[nH]c(Nc3ccc(F)cc3)c12`, the remaining activity was 93.9%.
For `CO[C@H]1C[C@@H]2CC[C@@H](C)[C@@](O)(O2)C(=O)C(=O)N2CCCC[C@H]2C(=O)O[C@H]([C@H](C)C[C@@H]2CC[C@@H](O)[C@H](OC)C2)CC(=O)[C@H](C)/C=C(\C)[C@@H](O)[C@@H](OC)C(=O)[C@H](C)C[C@H](C)/C=C/C=C/C=C/1C`, the remaining activity was 87.7%.
For `COc1ccc(C(=O)Nc2sc3c(c2C(N)=O)CCCC3)cc1OC`, the remaining activity was 79.4%.
For `N#CC(C#N)=C(N)/C(C#N)=C/c1ccc(O)cc1`, the remaining activity was 103%.
For `Cc1nc(-c2ccccc2)c(-c2ccncc2)o1`, the remaining activity was 95.9%.
For `COc1cc2nccc(Oc3ccc(NC(=S)NC(=O)c4ccccc4C)cc3)c2cc1OC`, the remaining activity was 95.9%.
For `O=C(Nc1cccc(Nc2cc(Nc3cccc(C(F)(F)F)c3)ncn2)c1)C1CC1`, the remaining activity was 113%.

Series 2
Target: Hepatocyte nuclear factor 3-alpha (Foxa1, Mus musculus, UniProt P35582, residues 1-468, full length assumed)
Technique: EMSA with sequencing
Form: double-stranded DNA, one strand shown
Medium: in vitro
Tested at: 10 and 20 nM
Setting: whole designed probe, mean of two concentrations, ends assumed
Reference: negative control set to 0
Direction: higher = stronger binding
Residues (chain): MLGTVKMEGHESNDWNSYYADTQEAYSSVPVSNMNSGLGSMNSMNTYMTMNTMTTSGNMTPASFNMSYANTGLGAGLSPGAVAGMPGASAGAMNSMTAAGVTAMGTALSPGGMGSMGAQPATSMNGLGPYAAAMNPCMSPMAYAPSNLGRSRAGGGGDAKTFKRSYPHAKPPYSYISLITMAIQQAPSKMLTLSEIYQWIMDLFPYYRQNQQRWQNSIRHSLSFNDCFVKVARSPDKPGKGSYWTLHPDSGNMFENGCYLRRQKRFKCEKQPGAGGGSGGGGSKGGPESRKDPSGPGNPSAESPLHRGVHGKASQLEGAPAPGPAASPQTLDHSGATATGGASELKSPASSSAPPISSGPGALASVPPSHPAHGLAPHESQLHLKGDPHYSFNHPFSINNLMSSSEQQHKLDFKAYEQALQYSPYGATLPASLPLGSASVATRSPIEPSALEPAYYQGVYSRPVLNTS
`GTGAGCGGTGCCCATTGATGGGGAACCCTGAGTTGGTGGAGCCACAAAAAGGAATCCCTGAGTCACTGCTTAGTCACTGGGCTGCCTTGGAGAGTTGATGAGACCTCAGCAAACTTTGTGTAATTTAAGAAATGAACGCTTACATTTTAACTACCGGAACTTGGAGGTTTGTTTGTTACTGCAACAAAGGTTAGCTTTATTGACTAATGCACTGTAACATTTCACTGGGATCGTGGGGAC` — result for “normalised bound fraction”: 0.219 ratio.
For `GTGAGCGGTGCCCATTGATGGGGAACATCTTCCCCCTCTTCCTTGCCCCACCAGCTCACCTTCCCGGGTTATTTGCAGATAGGAAAATAAATAAAGCCGGCATTCGTTAACCCTCTTCACGCGCATACTGCCAAAGTAAACAGATCTAACATGGTCCTTTGGCGACGCCAGGCTCCGGGAGAGCAAAGCACCGTGTCAGGGCCATGATCCGGGGTGGCCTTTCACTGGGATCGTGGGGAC`, “normalised bound fraction” read 0.494 ratio.
`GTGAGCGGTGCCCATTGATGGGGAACTCATGAGATTGTATTTACTTTTGTTAAGTGTAAACACTTCACAAAAGTGTTGTGTTTACTTTTGTTAAGTGTAAACACTTCACAAAAGTGTTGTGTTTACTTTTGTTAAGTGTAAACACTTCACAAAAGTGTTGTGTTTACTTTTAAGTGTAAACACTTCTTTTGTAATACTCTTTTGTAGTATTTTTCAACTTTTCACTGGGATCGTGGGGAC`: “normalised bound fraction” 0.563 ratio.
Under “normalised bound fraction”, `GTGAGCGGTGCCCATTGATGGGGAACAAACCAAGCTGACATCACAGTTCAGTACTTTCAAAACTTAAGTATTTGATGTCTGAGGTCAAGTACACAAGTACACACTCTGCCACCTCCTGTGCAAACAAATTATGGCTGCACTGATCTAATGAGTGCAGGCTGGCCTGGGACATAGGTAAACAGATGTGGGCCAAGTAGCCTGGCCCCTGCTGATAATGCTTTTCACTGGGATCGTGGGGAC` is recorded as 0.47 ratio.
Under “normalised bound fraction”, `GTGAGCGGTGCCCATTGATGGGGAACATGATCCAATTAAAAACAAAACAACAGCAACAACAAAAAAACAGACCTGGAAAACTTACTACACAGGCTCTGTGTAGTACGACAGAAAAGAAAAGTAAACAAGAATTTTTTAAAGGCATATAGGACTAGATATATGTAATTTGTTTTCTGAAATCCAACTCTTTCTTGTCCCTTTAGAAACATCTTCTCTATCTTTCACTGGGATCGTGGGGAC` is recorded as 0.484 ratio.

Series 3
SMILES: COc1ccc2c(c1)O[C@H](c1ccc(OC)c(OC)c1)C[C@@H]2NC(=O)C1(c2ccc3c(c2)OC(F)(F)O3)CC1
Effect on: cell-free assay
Technique: competition with immobilised ligand
Tested at: 1 µM
For Ribosomal protein S6 kinase alpha-1, N-terminal kinase domain (RPS6KA1, Homo sapiens, UniProt Q15418): remaining binding read 100%.
The remaining binding was 73% (ROS1 (Homo sapiens, UniProt P08922)).
FGFR3 (Homo sapiens, UniProt P22607) — remaining binding: 100%.
It gave 100% for remaining binding (PRKCD (Homo sapiens, UniProt Q05655)).

Series 4
Target: RING finger protein unkempt homolog, zinc fingers 1-6, GST-SBP tag (UNK, Homo sapiens, UniProt Q9C0B0, residues 30-357)
Technique: RNA Bind-n-Seq
Form: RNA
Medium: in vitro
Tested at: not given
Setting: RNA with constant flanks, human and mouse sites, ends assumed
Reference: input RNA pool
Direction: higher = stronger binding
Target sequence (chain): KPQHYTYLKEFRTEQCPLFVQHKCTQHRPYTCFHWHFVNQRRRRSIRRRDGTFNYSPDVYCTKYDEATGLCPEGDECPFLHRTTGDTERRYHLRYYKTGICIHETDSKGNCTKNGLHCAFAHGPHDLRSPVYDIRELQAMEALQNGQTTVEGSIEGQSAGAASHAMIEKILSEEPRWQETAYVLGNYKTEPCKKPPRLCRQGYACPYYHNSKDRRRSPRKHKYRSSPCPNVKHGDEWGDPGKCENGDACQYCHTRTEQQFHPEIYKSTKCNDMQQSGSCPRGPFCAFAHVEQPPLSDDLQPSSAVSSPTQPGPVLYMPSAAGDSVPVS
`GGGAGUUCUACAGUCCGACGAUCGAGAGUGACCAGACAUUAGCAGCUCUGCUCAGCCCUAAAGAAAGUAGUGGAGGAGAAAAAGAAGUACCUCCCCCUCCUAAAGAGACACUGCCUGAUUCAGGAUUUUCUGCCAAUAUUGAGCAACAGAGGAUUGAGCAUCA` has a bound/input enrichment of 0.176 ratio.
With `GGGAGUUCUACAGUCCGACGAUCCACUUGAUGCCCCCACGAAUCCUAGUGGAAUGUUUACUCCCCAAUGGAAUGAUAGUGACUUUAGAAUGCCUCCGUGAGGCCACACUCGUCACCAUCAAACAUGAACUGUUCAGAGAGGCCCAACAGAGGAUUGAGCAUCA` the bound/input enrichment was 0.217 ratio.
For `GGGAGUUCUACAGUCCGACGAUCAUCACCAUGUUGGAGGCAGCCUUGGGACUGGAGCGAGCUCACAUGGGAAUGUUCACAGAGCUAGCUAUUUUGUAUUCUAAAUUCAAGCCACAGAAAAUGAGAGAACACCUGGAGUUGUUCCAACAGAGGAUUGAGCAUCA`, the bound/input enrichment was 0.655 ratio.
The bound/input enrichment of `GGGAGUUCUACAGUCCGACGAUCCAUGACAGCAACACCGAUAUGUUUCAGAUUGGCCGGUCGACUGAAAGCCCCAUUGAUUUUGUAGUAACUGACACGGUUCCUGGAAGUCAAAGUAAUUCUGAUACACAGUCAGUACAAAGCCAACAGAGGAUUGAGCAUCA` is reported as 0.0694 ratio.
`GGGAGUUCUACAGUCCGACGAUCGGACAGGGAUUUUUGUAAGUCUAUAUUUGAAAGUCCCUCCCUAUGGUGAUACUGUGUUCAUGUUGUUUAUGUAGUGUUGUGUGAAAUAUCCAUUUUGGAUUGUGUUACUUUUUAAGAUAUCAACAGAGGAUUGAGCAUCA` has a bound/input enrichment of 0.475 ratio.
`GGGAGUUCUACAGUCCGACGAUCUUUCUUUUUUUUUCCCCUUUCUUCUUCCUCCCUCCCAAUUCCAACACCUCCAACCCCCAAACUAGGCUGGCCUCGAACUCACUAUUGUAGAAAGAUGUCCUUGAAGUCUCAAUCCUCCUGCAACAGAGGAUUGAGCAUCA` gave a bound/input enrichment of 3.36 ratio.
The bound/input enrichment of `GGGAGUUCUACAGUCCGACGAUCAUAAGUUAUACUUUCCGUUCAGUUUGUGUUUGUUCCAUAUGCGGAGUGUGGCACUCUGGCUAGCUGAGUUCAGUUCCCACGGGGACUCCUGUUUCUUAGGAAGCAUGCCAAAUGCCAGCUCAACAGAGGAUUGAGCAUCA` is reported as 0.297 ratio.
With `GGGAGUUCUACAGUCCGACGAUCCAUAAUCACAAGUUUGAAAUAUCCUAUUUCUUAAAUAAAAAGGAGAACGUUAAUUACAUUUAGCAGACAUUUUUACAUUCAAAACUGGAUAUUGAAAUACGUGGAACAAUUGCUUUAAAUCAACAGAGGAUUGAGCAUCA` the bound/input enrichment was 0.211 ratio.

Some of these lines once more (series 1):
`O=C(O)c1ccc2c3c1cccc3c(=O)n1c3ccccc3nc21` gave a remaining activity of 47.1%.
`Oc1ccc(-c2nc(-c3ccncc3)c(-c3ccc(F)cc3)[nH]2)cc1` has a remaining activity of 86.8%.
`O=C(CCCc1ccc(-c2ccccc2F)cc1)Nc1ccc(O)cc1` has a remaining activity of 93.1%.
